Results pooled from the literature.
“And” joins repeats or separate records; there may be more than shown. ± gives the spread as reported. In brackets after ≈: the same amount, converted by molar mass.

SMILES | organism | test | test system | conditions | scale | endpoint | result
O=C1NC(=O)C(c2cnc3ccccn23)=C1c1cn2c3c(cc(F)cc13)CN(C(=O)N1CCCCC1)CC2 | Aspergillus fumigatus |  |  | 20 µM | relative to: untreated | metabolic activity | ≥ 80%
Nc1ccn([C@@H]2O[C@H](CO)[C@@H](O)C2(F)F)c(=O)n1 | human alphaherpesvirus 1 |  | primary human keratinocytes, K26 GFP |  | relative to: CC50 over IC50 | selectivity index | < 0.62
Nc1ncnc2c([C@@H]3N[C@H](CO)[C@@H](O)[C@H]3O)c[nH]c12 | Measles morbillivirus | viral replication | Vero 76, Chicago | 29.6 µM |  | inhibition | 60%
Nc1c([N+](=O)[O-])oc2ccc3ccccc3c12 | Enterobacter cloacae | REMA |  |  |  | MIC90 | > 32 µg/mL
COC(=O)N[C@H](C(=O)N1CCC[C@H]1c1ncc(-c2ccc(-c3ccc(-c4cnc([C@@H]5CCCN5C(=O)[C@@H](NC(=O)OC)C(C)C)[nH]4)cc3)cc2)[nH]1)C(C)C | Hepatitis C virus |  | replicon cells, genotype 1a | 75% effect level, together with: NS3 inhibitor, ratio 1:1 |  | combination index | 0.99
O=[N+]([O-])c1cc2c(ccc3cc(Br)ccc32)o1 | Mycobacterium avium subsp. hominissuis | REMA | ATCC 25291 |  |  | MIC90 | > 32 µg/mL
COC(=O)C1=C(C)NC(C)=C(C(=O)OC(C)(C)CN(C)CCC(c2ccccc2)c2ccccc2)C1c1cccc([N+](=O)[O-])c1 (centres unmarked) | Aspergillus fumigatus | Alamar blue |  | 62.5 µg/mL, 48 h, together with: caspofungin 0.2 µg/mL |  | metabolic activity | 20.2% and 22.6%
CCCCCCCCCC(=O)N[C@@H](Cc1c[nH]c2ccccc12)C(=O)N[C@H](CC(N)=O)C(=O)N[C@@H](CC(=O)O)C(=O)N[C@@H]1C(=O)NCC(=O)N[C@@H](CCCN)C(=O)N[C@@H](CC(=O)O)C(=O)N[C@H](C)C(=O)N[C@@H](CC(=O)O)C(=O)NCC(=O)N[C@H](CO)C(=O)N[C@@H]([C@H](C)CC(=O)O)C(=O)N[C@@H](CC(=O)c2ccccc2N)C(=O)O[C@@H]1C | Enterococcus faecalis and Enterococcus faecium |  |  |  |  | MIC90 | 2 µg/mL (≈ 1.23 µM)
C[C@@H]1CN(c2cc(-c3nn(C)c4ccc(OC5(C)CC5)cc34)ncn2)C[C@H](C)O1 | murine hepatitis virus | viral replication, nanoluciferase reporter | DBT | 1 µM, 10 h | relative to: DMSO vehicle | inhibition | 20%
CC(=O)O[C@H]1C[C@H](O[C@H]2[C@@H](O)C[C@H](O[C@H]3[C@@H](O)C[C@H](O[C@H]4CC[C@@]5(C)[C@H](CC[C@@H]6[C@@H]5C[C@@H](O)[C@]5(C)[C@@H](C7=CC(=O)OC7)CC[C@]65O)C4)O[C@@H]3C)O[C@@H]2C)O[C@H](C)[C@H]1O[C@@H]1O[C@H](CO)[C@@H](O)[C@H](O)[C@H]1O | human alphaherpesvirus 1 |  | K26 GFP, 3D skin equivalent, submerged |  | relative to: CC50 over IC50 | selectivity index | 27.7
O=C(O)[C@@H]1[O][Sb](=[O])([O][Sb]2(=[O])[O][C@H]([C@H](O)CO)[C@H](O)[C@H](C(=O)O)[O]2)[O][C@H]([C@H](O)CO)[C@@H]1O.[Na+].[Na+].[Na+] (some centres unmarked) | Leishmania mexicana | parasite growth, Giemsa stain count | C57BL/6 mouse bone marrow-derived macrophages, amastigotes | 48 h |  | IC50 | 2.7 µM
N=C(N)NCCC[C@H](NC(=O)[C@H](Cc1c[nH]c2ccccc12)NC(=O)[C@H](CCCNC(=N)N)NC(=O)[C@H](Cc1c[nH]c2ccccc12)NC(=O)[C@H](Cc1c[nH]c2ccccc12)NC(=O)[C@H](Cc1c[nH]c2ccccc12)NC(=O)[C@H](CCCNC(=N)N)NC(=O)[C@H](Cc1c[nH]c2ccccc12)NC(=O)[C@H](CCCNC(=N)N)NC(=O)CN)C(N)=O | Candida albicans | broth microdilution | 56452, RPMI 1640-MOPS | 48 h, 30 °C |  | MIC | 4 µM (≈ 6.52 µg/mL)
O=[N+]([O-])c1cc2c(ccc3c2ccc2cc([N+](=O)[O-])oc23)o1 | Mycobacterium avium subsp. hominissuis | REMA | ATCC 25291 |  |  | MIC90 | 0.25 µg/mL (≈ 0.838 µM)
CNC(=O)c1ccccc1Nc1cc(Nc2ccc(N3CCOCC3)cc2OC)ncc1C(F)(F)F | murine hepatitis virus | viral replication, nanoluciferase reporter | DBT | 1 µM, 10 h | relative to: DMSO vehicle | inhibition | 26%
CC[C@H](C)[C@H](NC(=O)[C@H](CCCNC(=N)N)NC(=O)[C@H](Cc1c[nH]c2ccccc12)NC(=O)[C@H](CCCNC(=N)N)NC(=O)[C@H](Cc1c[nH]c2ccccc12)NC(=O)[C@H](Cc1c[nH]c2ccccc12)NC(=O)[C@H](Cc1c[nH]c2ccccc12)NC(=O)[C@H](CCCNC(=N)N)NC(=O)[C@H](Cc1c[nH]c2ccccc12)NC(=O)[C@H](CCCNC(=N)N)NC(=O)CN)C(N)=O | Candida parapsilosis | broth microdilution | CGMCC 2.399, RPMI 1640-MOPS | 48 h, 30 °C |  | MIC | 8 µM (≈ 13.9 µg/mL)
CNC(=O)c1cccc(-c2ccc3c(N4CCOC[C@@H]4C)nc(N4CCOC[C@@H]4C)nc3n2)c1 | Aspergillus fumigatus |  |  | 20 µM | relative to: untreated | metabolic activity | ≥ 80%

SMILES | organism | test | test system | conditions | scale | endpoint | result
CC(C)C[C@H](NC(=O)OCc1ccccc1)C(=O)N[C@H](C=O)C[C@@H]1CCCNC1=O | Norovirus | viral replication | HG23 replicon cells | 96 h |  | EC90 | 9.3 ± 0.34 µM
N=C(N)NCCC[C@H](NC(=O)CN)C(=O)N[C@@H](Cc1c[nH]c2ccccc12)C(=O)N[C@@H](CCCNC(=N)N)C(=O)N[C@@H](Cc1c[nH]c2ccccc12)C(=O)N[C@@H](Cc1c[nH]c2ccccc12)C(=O)N[C@@H](Cc1c[nH]c2ccccc12)C(=O)N[C@@H](CCCNC(=N)N)C(=O)N[C@@H](Cc1c[nH]c2ccccc12)C(=O)N[C@@H](CCCNC(=N)N)C(=O)N[C@@H](Cc1ccccc1)C(N)=O | Candida albicans | broth microdilution | 14936, RPMI 1640-MOPS | 48 h, 30 °C |  | MIC | 8 µM (≈ 14.2 µg/mL)
COc1ccc2c(ccc3oc([N+](=O)[O-])cc32)c1 | Enterobacter cloacae | REMA |  |  |  | MIC90 | 1.5 µg/mL (≈ 6.17 µM)
Cc1ccc(NC(=O)Nc2cc(C(F)(F)F)ccc2F)cc1Nc1ccc2c(c1)NC(=O)/C2=C\c1ccc[nH]1 | murine hepatitis virus | viral replication, nanoluciferase reporter | DBT | 1 µM, 10 h | relative to: DMSO vehicle | inhibition | 51%
Nc1ncnc2c1ncn2[C@@H]1O[C@@H]2COP(=O)(O)O[C@H]3[C@@H](O)[C@H](n4cnc5c(=O)[nH]cnc54)O[C@@H]3COP(=O)(O)O[C@H]2[C@H]1O | West Nile virus | RNA sequencing, item: innate immune system R-HSA-168249 | HFF-1 cells | concentration not given, upregulated pathway | relative to: WNV-infected untreated cells | fold enrichment | 1.91
C[C@H](NC(=O)[C@H](CCCNC(=N)N)NC(=O)[C@H](Cc1c[nH]c2ccccc12)NC(=O)[C@H](CCCNC(=N)N)NC(=O)[C@H](Cc1c[nH]c2ccccc12)NC(=O)[C@H](Cc1c[nH]c2ccccc12)NC(=O)[C@H](Cc1c[nH]c2ccccc12)NC(=O)[C@H](CCCNC(=N)N)NC(=O)[C@H](Cc1c[nH]c2ccccc12)NC(=O)[C@H](CCCNC(=N)N)NC(=O)CN)C(N)=O | Candida albicans | broth microdilution | SP3876, RPMI 1640-MOPS | 48 h, 30 °C |  | MIC | 8 µM (≈ 13.6 µg/mL)
CN1CCN(C(=O)C(C)(C)c2ccc(C(=O)Nc3cn4cc(-c5cc(C(C)(C)C)cc(C(C)(C)C)c5)ccc4n3)cc2)CC1 | murine hepatitis virus | viral replication, nanoluciferase reporter | DBT | 1 µM, 10 h | relative to: DMSO vehicle | inhibition | -1%
CCCC(CCC)C(=O)Nc1ccccc1O | Artemia franciscana | LC-MS/MS metabolomics, item: 1-aminocyclopropanecarboxylic acid | larvae | concentration not given, 24 h, LC1 concentration | relative to: vehicle | log2 fold change | 0.473
COc1cc(Nc2ncc3c(n2)-c2ccc(Cl)cc2C(c2c(F)cccc2OC)=NC3)ccc1C(=O)O | murine hepatitis virus | viral replication, nanoluciferase reporter | DBT | 1 µM, 10 h | relative to: DMSO vehicle | inhibition | 16%
C#Cc1ccc(C=NNC(=O)c2ccc(Br)cc2Br)c(O)c1 | Aspergillus fumigatus |  | 293 | unit not given, together with: voriconazole | lower = more synergy | FICI | 2
Cc1ccc(C(=O)Nc2cccc(C(F)(F)F)c2)cc1Nc1nc(-c2cccnc2)nc2c1cnn2C | murine hepatitis virus | viral replication, nanoluciferase reporter | DBT | 1 µM | relative to: DMSO vehicle | inhibition | 57%
CO/N=C(\C(=O)N[C@@H]1C(=O)N2C(C(=O)O)=C(CSC(=O)c3ccco3)CS[C@H]12)c1csc(N)n1 | Staphylococcus aureus |  | CAAS-2019-CAAS-2019-14 clinical blaZ-resistant isolate, PBS |  |  | MBC | 16 µg/mL
CN(C)c1ncnc(-c2ccc3nc(Nc4cc(CN5CCN(C(=O)CC(F)(F)F)CC5)ccn4)[nH]c3c2)c1Cl | murine hepatitis virus | viral replication, nanoluciferase reporter | DBT | 1 µM, 10 h | relative to: DMSO vehicle | inhibition | 8%
CS(=O)(=O)CCCn1c(Cn2c(=O)n(CC(F)(F)F)c3ccncc32)cc2cc(Cl)ccc21 | respiratory syncytial virus | RT-qPCR | hospitalized infants 1-24 months, nasal swab | oral, 8 mg/kg daily, day 4, cohort 6-24 months | relative to: baseline | LS mean viral load change | -0.58 log10 copies/mL
CCN(CCCOc1ccc2c(Nc3cc(CC(=O)Nc4cccc(F)c4)n[nH]3)ncnc2c1)CCOP(=O)(O)O | murine hepatitis virus | viral replication, nanoluciferase reporter | DBT | 1 µM, 10 h | relative to: DMSO vehicle | inhibition | -8%
N=C(N)NCCC[C@H](NC(=O)[C@H](Cc1c[nH]c2ccccc12)NC(=O)[C@H](CCCNC(=N)N)NC(=O)[C@H](Cc1c[nH]c2ccccc12)NC(=O)[C@H](Cc1c[nH]c2ccccc12)NC(=O)[C@H](Cc1c[nH]c2ccccc12)NC(=O)[C@H](CCCNC(=N)N)NC(=O)[C@H](Cc1c[nH]c2ccccc12)NC(=O)[C@@H](N)CCCNC(=N)N)C(=O)N[C@@H](Cc1c[nH]c2ccccc12)C(N)=O | Candida albicans |  | CGMCC 2.209 | no added salts |  | MIC | 8 µM
